# Measured values gathered from unrelated publications.
# Parts stem from different laboratories: compare values within a part only. “And” joins repeats or separate records; there may be more than shown.
# UniProt P51955, sequence (whole entry, looked up): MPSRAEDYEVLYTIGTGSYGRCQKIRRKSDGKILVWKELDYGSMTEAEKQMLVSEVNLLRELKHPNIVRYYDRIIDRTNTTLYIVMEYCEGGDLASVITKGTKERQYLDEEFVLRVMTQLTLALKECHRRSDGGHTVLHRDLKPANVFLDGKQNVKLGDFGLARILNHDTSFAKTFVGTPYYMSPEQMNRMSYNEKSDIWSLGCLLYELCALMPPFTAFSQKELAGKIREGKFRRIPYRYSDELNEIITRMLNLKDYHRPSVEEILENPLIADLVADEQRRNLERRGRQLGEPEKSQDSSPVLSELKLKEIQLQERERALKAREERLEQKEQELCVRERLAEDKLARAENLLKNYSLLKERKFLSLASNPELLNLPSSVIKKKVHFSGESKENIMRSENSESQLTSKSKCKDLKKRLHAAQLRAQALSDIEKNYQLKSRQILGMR
# UniProt Q15831, sequence (whole entry, looked up): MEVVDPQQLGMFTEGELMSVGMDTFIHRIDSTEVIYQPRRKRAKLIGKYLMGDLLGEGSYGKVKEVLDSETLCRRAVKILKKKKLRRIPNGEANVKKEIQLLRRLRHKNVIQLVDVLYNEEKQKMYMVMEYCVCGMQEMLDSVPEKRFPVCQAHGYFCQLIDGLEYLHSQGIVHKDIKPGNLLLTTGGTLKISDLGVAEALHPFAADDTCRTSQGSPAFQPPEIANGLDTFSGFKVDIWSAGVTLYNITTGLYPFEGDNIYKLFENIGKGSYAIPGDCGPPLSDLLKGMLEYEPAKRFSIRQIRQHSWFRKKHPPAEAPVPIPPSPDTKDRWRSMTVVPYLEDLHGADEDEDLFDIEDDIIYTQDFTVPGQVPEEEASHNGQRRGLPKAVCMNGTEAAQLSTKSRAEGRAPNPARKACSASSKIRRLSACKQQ
# UniProt P35626, sequence (whole entry, looked up): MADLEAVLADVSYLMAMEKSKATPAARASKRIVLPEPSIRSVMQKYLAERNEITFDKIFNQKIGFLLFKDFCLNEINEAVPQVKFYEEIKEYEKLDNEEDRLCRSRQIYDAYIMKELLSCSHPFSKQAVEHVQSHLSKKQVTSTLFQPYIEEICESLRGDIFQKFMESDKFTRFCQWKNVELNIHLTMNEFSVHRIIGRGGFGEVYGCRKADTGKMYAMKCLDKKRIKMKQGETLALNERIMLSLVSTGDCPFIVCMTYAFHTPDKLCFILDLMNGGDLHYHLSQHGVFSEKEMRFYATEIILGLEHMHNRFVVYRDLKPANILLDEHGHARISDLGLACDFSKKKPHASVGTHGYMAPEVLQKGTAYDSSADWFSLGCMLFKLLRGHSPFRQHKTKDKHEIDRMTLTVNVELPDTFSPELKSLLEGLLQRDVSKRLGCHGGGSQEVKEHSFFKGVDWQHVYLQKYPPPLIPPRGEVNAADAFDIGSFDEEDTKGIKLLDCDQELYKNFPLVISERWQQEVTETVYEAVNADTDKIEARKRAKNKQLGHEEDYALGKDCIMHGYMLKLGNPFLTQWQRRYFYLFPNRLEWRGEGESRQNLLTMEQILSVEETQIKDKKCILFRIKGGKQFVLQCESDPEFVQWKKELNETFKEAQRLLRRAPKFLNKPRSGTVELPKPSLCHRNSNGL
# UniProt P36897, sequence (whole entry, looked up): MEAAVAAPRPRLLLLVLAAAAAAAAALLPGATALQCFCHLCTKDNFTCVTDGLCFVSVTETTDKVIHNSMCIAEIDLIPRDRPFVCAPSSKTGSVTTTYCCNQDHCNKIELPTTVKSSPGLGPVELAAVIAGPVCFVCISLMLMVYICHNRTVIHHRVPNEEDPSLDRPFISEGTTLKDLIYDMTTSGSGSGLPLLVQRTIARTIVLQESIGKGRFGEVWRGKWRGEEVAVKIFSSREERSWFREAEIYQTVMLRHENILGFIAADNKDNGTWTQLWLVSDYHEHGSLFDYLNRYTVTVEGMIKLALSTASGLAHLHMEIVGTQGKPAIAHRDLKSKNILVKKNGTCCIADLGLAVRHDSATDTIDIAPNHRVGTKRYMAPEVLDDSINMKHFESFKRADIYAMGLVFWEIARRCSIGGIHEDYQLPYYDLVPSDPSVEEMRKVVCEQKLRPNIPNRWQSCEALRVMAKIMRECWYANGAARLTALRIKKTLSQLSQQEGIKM
# UniProt O94804, sequence (whole entry, looked up): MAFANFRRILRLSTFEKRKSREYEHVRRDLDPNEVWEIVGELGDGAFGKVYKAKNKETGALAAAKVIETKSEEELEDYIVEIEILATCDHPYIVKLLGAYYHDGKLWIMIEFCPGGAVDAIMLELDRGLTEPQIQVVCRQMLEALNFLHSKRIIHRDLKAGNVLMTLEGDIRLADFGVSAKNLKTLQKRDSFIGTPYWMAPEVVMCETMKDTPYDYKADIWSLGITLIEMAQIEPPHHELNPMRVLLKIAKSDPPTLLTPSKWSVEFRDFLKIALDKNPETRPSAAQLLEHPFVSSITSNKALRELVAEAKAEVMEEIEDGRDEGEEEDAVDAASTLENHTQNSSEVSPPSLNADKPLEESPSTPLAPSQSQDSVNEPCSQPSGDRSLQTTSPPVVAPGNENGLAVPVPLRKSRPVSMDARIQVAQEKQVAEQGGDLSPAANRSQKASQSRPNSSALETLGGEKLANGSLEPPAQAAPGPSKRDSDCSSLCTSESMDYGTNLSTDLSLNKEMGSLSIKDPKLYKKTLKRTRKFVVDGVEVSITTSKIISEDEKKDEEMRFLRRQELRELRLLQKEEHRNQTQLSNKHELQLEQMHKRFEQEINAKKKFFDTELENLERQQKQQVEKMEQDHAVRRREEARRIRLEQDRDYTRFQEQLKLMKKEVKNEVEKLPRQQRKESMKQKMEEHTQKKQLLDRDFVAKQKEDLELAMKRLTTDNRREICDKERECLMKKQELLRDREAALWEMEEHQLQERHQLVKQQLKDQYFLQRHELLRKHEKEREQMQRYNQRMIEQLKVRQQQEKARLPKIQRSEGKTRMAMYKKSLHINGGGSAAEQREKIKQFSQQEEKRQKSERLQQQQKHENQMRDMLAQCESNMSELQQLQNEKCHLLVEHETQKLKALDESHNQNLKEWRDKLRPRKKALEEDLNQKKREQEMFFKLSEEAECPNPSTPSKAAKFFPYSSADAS
# UniProt P37173, sequence (whole entry, looked up): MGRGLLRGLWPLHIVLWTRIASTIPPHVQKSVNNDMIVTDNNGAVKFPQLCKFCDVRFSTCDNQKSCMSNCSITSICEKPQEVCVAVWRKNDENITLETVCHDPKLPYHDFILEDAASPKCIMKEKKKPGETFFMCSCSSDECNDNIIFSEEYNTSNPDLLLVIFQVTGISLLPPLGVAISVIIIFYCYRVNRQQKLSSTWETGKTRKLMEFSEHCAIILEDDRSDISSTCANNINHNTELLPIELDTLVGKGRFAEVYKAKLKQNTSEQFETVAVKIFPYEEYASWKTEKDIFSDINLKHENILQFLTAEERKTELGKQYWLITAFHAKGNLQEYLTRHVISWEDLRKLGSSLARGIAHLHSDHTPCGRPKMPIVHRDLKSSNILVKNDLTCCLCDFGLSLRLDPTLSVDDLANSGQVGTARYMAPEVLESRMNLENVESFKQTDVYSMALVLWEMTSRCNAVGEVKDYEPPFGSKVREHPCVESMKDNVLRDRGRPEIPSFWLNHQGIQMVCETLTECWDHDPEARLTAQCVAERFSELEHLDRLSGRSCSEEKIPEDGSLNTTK
# UniProt Q9UIK4, sequence (whole entry, looked up): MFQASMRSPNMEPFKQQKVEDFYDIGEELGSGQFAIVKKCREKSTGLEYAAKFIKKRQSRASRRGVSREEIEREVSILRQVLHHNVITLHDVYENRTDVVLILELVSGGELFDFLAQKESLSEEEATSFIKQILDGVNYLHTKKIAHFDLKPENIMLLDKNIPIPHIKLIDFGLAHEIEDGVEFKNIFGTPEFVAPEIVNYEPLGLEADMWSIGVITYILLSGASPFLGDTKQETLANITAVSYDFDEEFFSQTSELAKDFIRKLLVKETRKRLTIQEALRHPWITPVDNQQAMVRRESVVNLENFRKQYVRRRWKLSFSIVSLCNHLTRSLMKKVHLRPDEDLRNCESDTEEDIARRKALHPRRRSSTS
# UniProt Q14164, sequence (whole entry, looked up): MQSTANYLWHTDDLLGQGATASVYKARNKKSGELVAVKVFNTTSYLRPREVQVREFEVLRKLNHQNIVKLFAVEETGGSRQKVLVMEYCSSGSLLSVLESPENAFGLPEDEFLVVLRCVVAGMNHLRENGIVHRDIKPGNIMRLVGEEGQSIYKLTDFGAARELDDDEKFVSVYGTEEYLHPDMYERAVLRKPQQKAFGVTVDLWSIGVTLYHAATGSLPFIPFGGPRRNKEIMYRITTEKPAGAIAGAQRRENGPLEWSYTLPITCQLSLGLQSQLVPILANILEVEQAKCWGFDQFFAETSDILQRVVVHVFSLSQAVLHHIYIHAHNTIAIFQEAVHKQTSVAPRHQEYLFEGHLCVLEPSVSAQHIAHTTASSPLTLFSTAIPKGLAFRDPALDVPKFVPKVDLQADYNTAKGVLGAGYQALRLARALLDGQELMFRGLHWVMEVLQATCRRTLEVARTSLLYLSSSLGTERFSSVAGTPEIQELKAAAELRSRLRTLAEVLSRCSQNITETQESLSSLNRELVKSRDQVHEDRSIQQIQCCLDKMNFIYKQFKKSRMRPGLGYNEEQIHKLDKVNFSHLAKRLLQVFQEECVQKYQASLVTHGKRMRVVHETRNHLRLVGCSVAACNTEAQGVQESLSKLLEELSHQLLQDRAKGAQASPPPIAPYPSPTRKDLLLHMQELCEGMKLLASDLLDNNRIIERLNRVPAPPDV
# UniProt Q00535, sequence (whole entry, looked up): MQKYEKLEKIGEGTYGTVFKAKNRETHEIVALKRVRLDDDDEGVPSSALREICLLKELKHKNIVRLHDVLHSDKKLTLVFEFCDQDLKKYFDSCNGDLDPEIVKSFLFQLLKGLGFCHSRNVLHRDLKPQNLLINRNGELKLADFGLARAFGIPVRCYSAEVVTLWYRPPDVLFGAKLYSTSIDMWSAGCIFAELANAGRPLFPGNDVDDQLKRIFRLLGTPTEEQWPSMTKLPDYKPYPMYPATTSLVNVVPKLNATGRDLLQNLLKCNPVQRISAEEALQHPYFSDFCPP

# Set 1
# Target: Diamine acetyltransferase 1 (Homo sapiens, UniProt P21673)
# Mode: inhibitor
# Tested at: 10 µM
# Baseline: control
# Construct (P21673 1-171): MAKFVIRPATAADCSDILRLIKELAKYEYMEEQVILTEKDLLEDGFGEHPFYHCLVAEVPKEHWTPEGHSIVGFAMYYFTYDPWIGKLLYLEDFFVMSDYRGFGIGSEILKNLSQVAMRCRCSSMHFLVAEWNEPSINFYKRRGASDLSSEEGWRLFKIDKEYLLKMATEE
SMILES,remaining activity
CCCCCCCCCCCCCCCC(=O)O,87%
CC1(C)CC[C@]2(C(=O)O[C@@H]3O[C@H](CO[C@@H]4O[C@H](CO)[C@@H](O)[C@H](O)[C@H]4O)[C@@H](O)[C@H](O)[C@H]3O)CC[C@]3(C)C(=CC[C@@H]4[C@@]5(C)CC[C@H](O[C@@H]6OC[C@H](O)[C@H](O)[C@H]6O)[C@@](C)(CO)[C@@H]5CC[C@]43C)[C@@H]2C1,104%
O=C(O)c1cc(O)c(O)c(O)c1,101%
C[C@@H]1O[C@@H](O[C@@H]2[C@@H](O)[C@H](OCCc3ccc(O)c(O)c3)O[C@H](CO[C@@H]3O[C@H](CO)[C@@H](O)[C@H](O)[C@H]3O)[C@H]2OC(=O)/C=C/c2ccc(O)c(O)c2)[C@H](O)[C@H](O)[C@H]1O,102%

# Set 2
# Cell line: sample B colorectal tumour organoid
# Tested at: 1 µM
# Baseline: DMSO
Compound,viability
CCCCNc1ncc(-c2ccc(CN3CCOCC3)cn2)c(NC2CCC(O)CC2)n1 (stereo not shown),107%
CCNC(=O)c1cc2c(N3CCOC[C@H]3C)ccnc2n1C,129% and 100%
CN(C)C(=O)Cn1cc(-c2ccc(-c3nnc4ccccn34)cc2)cn1,110%
Cl.Cl.NC1(c2ccc(-c3nc4ccn5c(=O)[nH]nc5c4cc3-c3ccccc3)cc2)CCC1,64.2%
O=C(Nc1cccnn1)N1CC(CC=Cc2cncc(Oc3ccc(C(F)(F)F)cn3)n2)C1,121%

# Set 3
# SMILES: Oc1cccc(-c2nc(N3CCOCC3)c3oc4ncccc4c3n2)c1
# Effect on: enzyme activity
# Mode: inhibitor
# Tested at: 0.5 µM
# Baseline: control
target,remaining activity [%]
"Death-associated protein kinase 1 (DAPK1, Homo sapiens, UniProt P53355)",78
"Inhibitor of nuclear factor kappa-B kinase subunit epsilon (IKBKE, Homo sapiens, UniProt Q14164)",98.8
"Tyrosine-protein kinase Lyn, isoform B (LYN, Homo sapiens, UniProt P07948)",98.3
"G protein-coupled receptor kinase 3 (GRK3, Homo sapiens, UniProt P35626)",110
"cGMP-dependent protein kinase 1, isoform beta (PRKG1, Homo sapiens, UniProt Q13976)",109
"Calcium/calmodulin-dependent protein kinase type II subunit delta (CAMK2D, Homo sapiens, UniProt Q13557)",96.2
"Protein kinase C alpha type (PRKCA, Homo sapiens, UniProt P17252)",103
"TGF-beta receptor type-2 (TGFBR2, Homo sapiens, UniProt P37173)",102
"Serine/threonine-protein kinase OSR1 (OXSR1, Homo sapiens, UniProt O95747)",93.2
"TGF-beta receptor type-1 (TGFBR1, Homo sapiens, UniProt P36897)",95
"Serine/threonine-protein kinase 10 (STK10, Homo sapiens, UniProt O94804)",92.1
"cAMP-dependent protein kinase catalytic subunit alpha (PRKACA, Homo sapiens, UniProt P17612)",99.5
"Protein kinase C beta type, isoform beta-I (PRKCB, Homo sapiens, UniProt P05771)",97.8
"STE20/SPS1-related proline-alanine-rich protein kinase (STK39, Homo sapiens, UniProt Q9UEW8)",105
"Serine/threonine-protein kinase Nek2 (NEK2, Homo sapiens, UniProt P51955)",88.6
"Death-associated protein kinase 2 (DAPK2, Homo sapiens, UniProt Q9UIK4)",117
"Serine/threonine-protein kinase STK11 (STK11, Homo sapiens, UniProt Q15831)",86.4
"Calcium/calmodulin-dependent protein kinase kinase 2 (CAMKK2, Homo sapiens, UniProt Q96RR4)",79.8
"Inhibitor of nuclear factor kappa-B kinase subunit beta (IKBKB, Homo sapiens, UniProt O14920)",98.3
"Cyclin-dependent kinase 5, with p25 (CDK5, Homo sapiens, UniProt Q00535)",77.9

# Set 4
# Cell line: mouse MPNST tumor cells
# Technique: high-content nuclear imaging
# Measured: cell number
# Tested at: 10 µM
# Time: 12 h
# Setting: mean of 2 replicates
# Baseline: plate mean
# Direction: higher = more cells
SMILES,nuclei count [z-score]
COc1c(O[C@@H]2O[C@H](CO)[C@@H](O)[C@H](O)[C@H]2O)cc2c(c1OC)-c1ccc(SC)c(=O)cc1[C@@H](NC(C)=O)CC2,-1.3
N#C[C@@H]1CC[C@H](C#N)N1C(=O)CNC1(CO)CCCC1,0.565
Oc1ccc(-c2c(-c3ccccc3)nn3c(C(F)(F)F)cc(C(F)(F)F)nc23)cc1,1.36
COc1cccc([C@H](O)C2CCN(CCc3ccc(F)cc3)CC2)c1OC,1.84
Cn1c(=O)c2cc(C(=O)NCCCN3CCCCCC3)sc2c2ccccc21,1.78
O=C(O)c1ccc(C=C2SC(=S)N(c3cccc(C(F)(F)F)c3)C2=O)cc1,-1.15
Oc1c(F)cc(-c2cnccc2-c2ccc(N3CCOCC3)cc2)cc1F,0.682

# Set 5
# Cell line: HaCaT
# Tested at: 100 µM
# Time: 18 h
SMILES,viability
COc1c(N2CCNC(C)C2)c(F)cc2c(=O)c(C(=O)O)cn(C3CC3)c12 (stereo not shown),117%
Cc1c(C(=O)Nc2ccc(N3C[C@@H](C)O[C@@H](C)C3)nc2)cccc1-c1ccc(OC(F)(F)F)cc1,26%
Cc1[nH]c(=O)c(C#N)cc1-c1ccncc1,107%
CCN(CCCCOC(=O)c1ccc(OC)c(OC)c1)C(C)Cc1ccc(OC)cc1 (stereo not shown),70.6%
CCC[C@H](N[C@@H](C)C(=O)N1[C@H](C(=O)O)C[C@@H]2CCCC[C@@H]21)C(=O)O,108%
C[C@@H]1C[C@H]2[C@@H]3CCC4=CC(=O)C=C[C@]4(C)[C@@]3(Cl)[C@@H](O)C[C@]2(C)[C@@]1(OC(=O)c1ccco1)C(=O)CCl,30%
NS(=O)(=O)c1cc(C2(O)NC(=O)c3ccccc32)ccc1Cl (stereo not shown),81.2%

# Some of these lines once more (set 3):
target,remaining activity [%]
"cAMP-dependent protein kinase catalytic subunit alpha (PRKACA, Homo sapiens, UniProt P17612)",99.5
"Protein kinase C beta type, isoform beta-I (PRKCB, Homo sapiens, UniProt P05771)",97.8
"STE20/SPS1-related proline-alanine-rich protein kinase (STK39, Homo sapiens, UniProt Q9UEW8)",105
"Serine/threonine-protein kinase Nek2 (NEK2, Homo sapiens, UniProt P51955)",88.6
"Death-associated protein kinase 2 (DAPK2, Homo sapiens, UniProt Q9UIK4)",117
"Serine/threonine-protein kinase STK11 (STK11, Homo sapiens, UniProt Q15831)",86.4
"Calcium/calmodulin-dependent protein kinase kinase 2 (CAMKK2, Homo sapiens, UniProt Q96RR4)",79.8
